Measurements of several laboratories.
Each numbered part is a random draw from the data of one study; scales do not carry over between parts. Positions count from the first letter of the parent shown.

Study 1
Target: ABI1, truncated, D143A, DHFR fusion (Arabidopsis thaliana, UniProt P49597)
Technique: DHFR PCA, dose-response
Matrix: yeast
Notes: Hill fit, mean, not affinity
With: (+)-ABA, dose series
Reading: lower = more sensitive
Starting sequence: PYL1, truncated, DHFR fusion (Arabidopsis thaliana, UniProt Q8VZS8); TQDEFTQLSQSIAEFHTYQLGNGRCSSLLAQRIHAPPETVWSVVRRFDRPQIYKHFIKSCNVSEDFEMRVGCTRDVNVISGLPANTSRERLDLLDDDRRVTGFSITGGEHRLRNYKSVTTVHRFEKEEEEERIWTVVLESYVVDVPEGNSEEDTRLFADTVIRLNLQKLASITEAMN
Substitution | ABA EC50
V70A | 5.12 µM
E139S | 13.8 µM
L82M | 14.1 µM
T160Y | 4.33 µM
S11W | 2.14 µM
N22R | 3.81 µM
G71N | 34.6 µM

Study 2
Target: Centromere-binding protein 1, full length, His-tagged (CBF1, Saccharomyces cerevisiae, UniProt P17106, residues 1-351)
Sequence of UniProt P17106 (whole entry, looked up): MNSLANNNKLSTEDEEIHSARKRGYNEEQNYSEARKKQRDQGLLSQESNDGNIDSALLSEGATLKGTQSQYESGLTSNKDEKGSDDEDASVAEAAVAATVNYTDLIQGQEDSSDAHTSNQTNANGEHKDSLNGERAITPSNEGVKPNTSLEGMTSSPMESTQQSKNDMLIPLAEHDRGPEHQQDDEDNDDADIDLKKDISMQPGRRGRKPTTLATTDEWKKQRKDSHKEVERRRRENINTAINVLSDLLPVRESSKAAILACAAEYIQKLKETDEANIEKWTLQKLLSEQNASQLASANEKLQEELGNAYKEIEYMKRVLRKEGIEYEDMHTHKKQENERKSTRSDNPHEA
Technique: competition protein-binding microarray
Molecule type: double-stranded DNA, one strand shown
Matrix: in vitro
Tested at: 2 µM
Notes: whole 60-bp probe, lowest competitor level
With: Pho4 competitor, 0.05 µM
Reading: higher = stronger binding
All sequences stand within: … GTCTTGATTCGCTTGACGCTGCTG
Strand | fluorescence intensity [a.u.]
GTCTTGTCTCATTGTCACTGTACTTTCCCCACTTCA | 104
AAATTACTAAGTTGTAGGGTGGGTGACGCCGTATGA | 65.4
TGCGCAACAACTTGGAGGGTGGGTGTATGTCTAGAA | 64.3
TTTCCAACCTTCTGGCACGATAGTCTATGTCAAAAT | 66.9
AGGTCGTCGAGGACGCCCGCGACGCAGTCAAACAGG | 57.8
CGGGGTTAAGTTTGTCGGGTGGGTGGCTTGCAGCAG | 61.4
AAATTACTAAGTTGTTTTGTGGGTGACGCCGTATGA | 73.5

Study 3
Target: RNA binding protein fox-1 homolog 2, RRM domain, GST-SBP tag (RBFOX2, Homo sapiens, UniProt O43251-10, residues 100-194)
Technique: RNA Bind-n-Seq
Molecule type: RNA
Matrix: in vitro
Tested at: 365 nM
Notes: natural RNA segment, single round, ends assumed
Relative to: no-protein control
Reading: higher = stronger binding
All sequences stand within: GGGAGUUCUACAGUCCGACGAUC … UGGAAUUCUCGGGUGCCAA
Residues (chain): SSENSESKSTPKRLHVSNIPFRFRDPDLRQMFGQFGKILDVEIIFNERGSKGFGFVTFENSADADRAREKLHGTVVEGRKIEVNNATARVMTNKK
Strand | RBNS enrichment (R)
AAGGGUUUCCACUCUGCACAUUGUAGAGGGAACACUCUGUAGGCCCAUGGGUCCCUUACUAGAGAGGUUGAGUGAAUUUGCCUUCAGUUAACAUGGGACCUUCUGUUUAG | 0.314
CAGUUCUCAUUACUGUUAUUUAUUAGCUGUAGCAUUCUCUGUCUCCUCUCUCUCCUCCUUUGACCUUCUCCUCGACCAGCCAUCAUGACAUUUACCAUGAAUUUACUUCC | 0.584
GCAUUUUGUACUUAGCUGUACUGUGUGAUAUUUUUCAUUAUUUUAGGACGCCAACAUGAGACCUGUAAUAAAAUAUGUAAUGGGGUUGAAAGCUGGGGAGGAGGAUCUAC | 0.563
UAGGCUGCAGGGGUGCCAAUGGCAGAGGCACUGGUAGAGAUCAUUUGGACACUGGAGUUGAAAGUUACAGGCAAUCUGUUACACUUGGCUCUGAAUCCUAUGAAUCAAGG | 0.545
UUGUAUGUUGUAUAUACCAUUCUAUUAAGAAACAUGUCCACUGUGCUUUCAAACAUAGAUAAAGCAUGAUAAAGAUUAUUAUUUAAGAUAUACUUGUAUUUAUACCUCAG | 1.44
GGUCUAGGAAGCCGAAGCUGAGUGCGCACUAGAGCUGCUAGCAGGCAGGCCAGAGGGUCAGCUUGUGUUUUAUUUUCUGAUUUCUCCUGCAUGCUUUCUGGAGAUGAGGA | 22
CAUCACAGAUGGGAGAAGGCCAUGCCAGCCACGUCCGCCGAGGGGCGCCAGCCUGAAGCUGCCAGGCCCUGAGGUUCAGACCCUGGACCCCAUAGCUGGAGGCCUGUGGU | 0.179
GUGAAACUGAUAGGUCUUGAUCUGCUUUCUUAGAUCACUGAUUCAGAGCUCAAAGCCCAGGUUCAGGGUAAGAAUUUGUAAUACAGAAGAAGAAAGACUCCCUUCACUUU | 1.57
GAGAGGGAAUCAGAGGUGGCUUAGUUCCCUGAAGACAGCCUUAUGCGCUUAAUCCCUGCCUUUGAAAAAUGGGCCAAUACACAACACAGACAAUAAUUUGAAGCGUCUGU | 0.63

Other studies, line by line
Substance | target | test | system | setting | how to read | measurement | value
PhoQ, residues 284 288 289 292 302 303 SLSVQF | PhoP, residues 12 14 15 18 19 HEGLL (Escherichia coli, UniProt P23836) | Sort-seq, measured: YFP reporter | E. coli | PhoQ-PhoP variant library, with: 10 µM Mg2+ | relative to: high Mg2+ state, higher = stronger signaling | fold induction | 15.8

Some of these lines once more (study 3):
Strand | RBNS enrichment (R)
UUGUAUGUUGUAUAUACCAUUCUAUUAAGAAACAUGUCCACUGUGCUUUCAAACAUAGAUAAAGCAUGAUAAAGAUUAUUAUUUAAGAUAUACUUGUAUUUAUACCUCAG | 1.44
GUGAAACUGAUAGGUCUUGAUCUGCUUUCUUAGAUCACUGAUUCAGAGCUCAAAGCCCAGGUUCAGGGUAAGAAUUUGUAAUACAGAAGAAGAAAGACUCCCUUCACUUU | 1.57
GCAUUUUGUACUUAGCUGUACUGUGUGAUAUUUUUCAUUAUUUUAGGACGCCAACAUGAGACCUGUAAUAAAAUAUGUAAUGGGGUUGAAAGCUGGGGAGGAGGAUCUAC | 0.563
